{"data": "Measurements collected from several papers", "note": "Protocols differ between the studies behind these lines. Several values in a cell are separate wells, animals, samples, runs or records."}
{"SMILES": "CCN1CCN(Cc2ccc(NC(=O)c3ccc(C)c(NC(=O)c4cncc(-c5cccs5)c4)c3)cc2C(F)(F)F)CC1", "system": "mouse, plasma", "conditions": "intraperitoneal, 30 mg/kg, single dose", "endpoint": "Tmax", "value": "0.5 h"}
{"SMILES": "Cn1nc2c(=O)n(C3CC3)ncc2c1[C@](O)(c1cnc(C(F)(F)F)c(Cl)c1)C1CC1", "assay": "nephelometry", "system": "aqueous buffer", "conditions": "30 min, pH 6.5", "endpoint": "kinetic solubility", "value": "20 to 40 µM"}
{"SMILES": "COc1ccc2c(=O)n(C)c(-c3ccccc3)nc2c1", "system": "male Sprague-Dawley rat, spleen", "conditions": "oral, 30 mg/kg, 30 min, single dose", "endpoint": "concentration", "value": "133 ng/g"}
{"SMILES": "Cc1ccc2c(c1)nc(CCc1cccc3cccnc13)n2-c1ccccc1", "assay": "metabolic stability", "system": "rat, liver microsomes", "conditions": "1.5 µM, 0 h", "endpoint": "compound remaining", "value": "100%"}
{"SMILES": "Cc1nccn1CC1CCc2c(c3ccccc3n2C)C1=O (stereo not shown)", "system": "male Sprague-Dawley rat, plasma", "conditions": "intravenous", "endpoint": "Vd", "value": "1.86 L/kg"}
{"SMILES": "C[C@@H]1COCCN1c1cc([C@]2(O)C[C@H]3CC[C@@H](C2)O3)c2cnn(-c3cc[nH]n3)c2n1", "system": "mouse, plasma", "endpoint": "fraction unbound", "value": 0.0067}
{"SMILES": "C=CCn1c(=O)c2cnc(Nc3ccc(N4CCN(C)CC4)cc3)nc2n1-c1ccc2c(n1)[C@@](O)(CC)CC2", "system": "mouse, plasma", "endpoint": "fraction unbound", "value": 0.161}
{"SMILES": "COc1ccc([C@@H](O)c2cc(-c3ncnc4cc(N5CCOCC5)ccc34)c(F)cc2Cl)nn1", "system": "human, plasma", "conditions": "oral, 150 mg, multiple doses, once daily, patients", "endpoint": "Tmax", "value": "2.18 h"}
{"SMILES": "Fc1ccc(N/N=C/c2ccc(-c3cccc(/C=N/Nc4ccc(F)cc4F)c3)cc2)c(F)c1", "assay": "haemolysis", "system": "mouse", "conditions": "62.5 µg/mL, 1 h", "endpoint": "haemolysis", "value": "< 25%"}
{"SMILES": "NCc1ccc(-c2nn(Cc3ccccc3)c3ccccc23)o1", "system": "male CD-1 mouse, plasma", "conditions": "intraperitoneal, 30 mg/kg", "endpoint": "bioavailability", "value": "116%"}
{"SMILES": "CC/C(=C(\\c1ccc(O)cc1)c1ccc(OCCNC)cc1)c1ccccc1", "system": "female C57BL/6 mouse, plasma", "conditions": "oral, 1 mg/kg, single dose", "endpoint": "Tmax", "value": "2 h"}
{"SMILES": "O=C(c1ccc(F)cc1)C1CCN(CCn2c(=O)[nH]c3ccccc3c2=O)CC1", "assay": "metabolic stability", "system": "rat, liver microsomes", "conditions": "15 min", "endpoint": "compound remaining", "value": "57.2%"}
{"SMILES": "COc1cc(C)c(Sc2cnc(NC(=O)c3ccc(N4CCN(CCCCCCCNC(=O)COc5cccc6c5C(=O)N(C5CCC(=O)NC5=O)C6=O)CC4)cc3)s2)cc1C(=O)N1CCN(C(C)=O)CC1 (stereo not shown)", "system": "male C57BL/6 mouse, serum", "conditions": "intraperitoneal, 10 mg/kg, single dose", "endpoint": "half-life", "value": "1.9 h"}
{"SMILES": "COc1cccc(-c2n[nH]c(SCc3ccccn3)n2)c1OC", "system": "female Sprague-Dawley rat, plasma", "conditions": "oral, 10 mg/kg, 30 min, single dose", "endpoint": "concentration", "value": "10000 ng/mL"}
{"SMILES": "CCOC(=O)[C@@]12C[C@@H]1[C@@H](n1ccc3c(NC)nc(C#Cc4ccc(Cl)s4)nc31)[C@H](O)[C@@H]2O", "system": "male Sprague-Dawley rat, plasma", "conditions": "oral, 1 mg/kg, 30 min", "endpoint": "concentration", "value": "8.88 ng/mL"}
{"SMILES": "Cc1noc(C)c1Cn1cc(N2C(=O)CN(Cc3cccc(O)c3)C2=O)cn1", "system": "male Sprague-Dawley rat, plasma", "conditions": "oral, 30 mg/kg, 1 h", "endpoint": "concentration", "value": "28.9 ng/mL"}
{"SMILES": "NC(=S)NN=Cc1ncccc1N", "system": "human, plasma", "conditions": "oral", "endpoint": "bioavailability", "value": "59%"}
{"SMILES": "O=C(COc1ccc(Cl)cc1)NC12CC(c3nnc([C@H]4C[C@@H](OC(F)(F)F)C4)o3)(C1)C2", "system": "human, plasma", "conditions": "oral, 200 mg, single dose, fasted, healthy volunteers", "endpoint": "Tmax", "value": "12 h"}
{"SMILES": "Cc1ncsc1-c1ccc([C@H](C)NC(=O)[C@@H]2C[C@@H](O)CN2C(=O)[C@@H](NC(=O)CCc2ccc(C#Cc3ccc(C(=O)NCCCn4cc(-c5ccc6c(c5)CCN6C(=O)Cc5cccc(OC(F)(F)F)c5)c5c(N)ncnc54)cc3)cn2)C(C)(C)C)cc1", "assay": "metabolic stability", "system": "mouse, liver S9", "conditions": "1 µM", "endpoint": "half-life", "value": "1.08 h"}
{"SMILES": "COc1cc2c3c(n(CCCN4CCOCC4)c(=O)c2cc1OC)-c1cc2c(cc1C3=O)OCO2", "system": "male beagle dog, plasma", "conditions": "intravenous, 10 mg/m², infusion", "endpoint": "half-life", "value": "5.9 h"}
{"SMILES": "Cn1nc2c(=O)n(C3CC3)cnc2c1[C@](O)(c1ccc(C(F)(F)F)c(C#N)c1)C(F)(F)F", "assay": "nephelometry", "system": "aqueous buffer", "conditions": "30 min, pH 6.5", "endpoint": "kinetic solubility", "value": "40 to 80 µM"}
{"SMILES": "CCC(C)n1ncn(-c2ccc(N3CCN(c4ccc(OCC5COC(Cn6cncn6)(c6ccc(Cl)cc6Cl)O5)cc4)CC3)cc2)c1=O (stereo not shown)", "system": "FaSSIF", "conditions": "pH 6.5", "endpoint": "solubility", "value": "5 µg/mL"}
{"SMILES": "Cc1nc(-c2cnc(NC(C)C)n(C)c2=O)ccc1Oc1ccnc(-c2cnn(C)c2)c1", "system": "female mouse, plasma", "conditions": "oral, 15 mg/kg, single dose", "endpoint": "Tmax", "value": "6 h"}
{"SMILES": "Cc1c(C(=O)O)ccc2c3n(nc12)[C@@H]1[C@H](C3)N(CC2CC2)[C@@]2(C(=O)Nc3cc(Cl)ccc32)[C@H]1c1cccc(Cl)c1F", "system": "male dog, plasma", "conditions": "intravenous", "endpoint": "Vd", "value": "0.56 L/kg"}
{"SMILES": "CC[C@@](O)(c1ccc(C(F)(F)F)c(Cl)c1)c1c2cnn(C3CC3)c(=O)c2nn1C", "assay": "nephelometry", "system": "aqueous buffer", "conditions": "30 min, pH 6.5", "endpoint": "kinetic solubility", "value": "6.25 to 12.5 µM"}
{"SMILES": "OCc1nc2ccc(NCc3ccc(C(F)(F)F)cc3)cc2[nH]1", "system": "male BALB/c mouse, plasma", "conditions": "oral, 10 mg/kg", "endpoint": "Vd/F", "value": "19.1 L/kg"}
{"SMILES": "Cn1nc2c(=O)n(C3CC3)ccc2c1Cc1ccc(C(F)(F)F)c(C#N)c1", "assay": "nephelometry", "system": "aqueous buffer", "conditions": "30 min, pH 6.5", "endpoint": "kinetic solubility", "value": "67 to 134 µM"}
{"SMILES": "O=C1CC[C@H](N2Cc3cc(N4CCN(CC5CCN(c6ccc([C@@H]7c8ccc(O)cc8CC[C@@H]7c7ccccc7)cc6)CC5)CC4)ccc3C2=O)C(=O)N1", "system": "Sprague-Dawley rat, plasma", "conditions": "intravenous, 5 mg/kg", "endpoint": "clearance", "value": "11.7 mL/min/kg"}
{"SMILES": "Cc1ccc2c(c1)nc(/C=C/c1cccc3cccnc13)n2-c1ccccc1", "assay": "metabolic stability", "system": "rat, liver microsomes", "conditions": "1.5 µM, 15 min", "endpoint": "compound remaining", "value": "55.1%"}
{"SMILES": "OCc1ccc(-c2nn(Cc3cccnc3)c3ccccc23)o1", "assay": "metabolic stability", "system": "rat, liver microsomes", "conditions": "1 µM, pH 7.4", "endpoint": "half-life", "value": "0.183 h"}
{"SMILES": "CCOc1c(O)cc(Br)c2c1CN1CCc3cc(OCC(F)F)c(O)cc3[C@@H]1C2", "assay": "metabolic stability", "system": "rat, liver S9", "conditions": "2 µM, 2 h, pH 7.4", "endpoint": "compound remaining", "value": "< 1% and 0.3%"}
{"SMILES": "CCn1cc(C2CC2)c2c(CN3CCCC(F)(F)C3)n(C)nc2c1=O", "assay": "nephelometry", "system": "aqueous buffer", "conditions": "30 min, pH 6.5", "endpoint": "kinetic solubility", "value": "80 to 160 µM"}
{"SMILES": "N#C[C@@]1(c2ccc3c(N)ncnn23)O[C@H](CO)[C@@H](O)[C@H]1O", "system": "dog, plasma", "conditions": "10 µM", "endpoint": "fraction unbound", "value": 0.932}
{"SMILES": "Fc1cccc(N/N=C/c2ccc(-c3cccc(/C=N/Nc4cccc(F)c4)c3)cc2)c1", "assay": "haemolysis", "system": "mouse", "conditions": "15.6 µg/mL, 1 h", "endpoint": "haemolysis", "value": "< 20%"}
{"SMILES": "CCn1ccc2c([C@@](O)(CC)c3ccc(C(F)(F)F)nc3)n(C)nc2c1=O", "assay": "nephelometry", "system": "aqueous buffer", "conditions": "30 min, pH 6.5", "endpoint": "kinetic solubility", "value": "40 to 80 µM"}
{"SMILES": "Cc1ncsc1-c1ccc([C@H](C)NC(=O)[C@@H]2C[C@@H](O)CN2C(=O)[C@@H](NC(=O)CCOCCOCCC(=O)NCCCn2cc(-c3ccc4c(c3)CCN4C(=O)Cc3cccc(OC(F)(F)F)c3)c3c(N)ncnc32)C(C)(C)C)cc1", "assay": "metabolic stability", "system": "mouse, liver S9", "conditions": "1 µM", "endpoint": "half-life", "value": "0.162 h"}
{"SMILES": "CCn1cc(C2CC2)c2c(Cc3ccc(C(F)(F)F)c(C#N)c3)n(C)nc2c1=O", "assay": "nephelometry", "system": "aqueous buffer", "conditions": "30 min, pH 6.5", "endpoint": "kinetic solubility", "value": "15 to 30 µM"}
{"SMILES": "COc1ccc(N/N=C/c2ccc(-c3cccc(/C=N/Nc4ccc(OC)cc4)c3)cc2)cc1", "assay": "haemolysis", "system": "mouse", "conditions": "62.5 µg/mL, 1 h", "endpoint": "haemolysis", "value": "< 30%"}
{"SMILES": "CC[C@@](N)(c1ccc(C(F)(F)F)c(Cl)c1)c1c2cnn(C3CC3)c(=O)c2nn1C", "assay": "nephelometry", "system": "aqueous buffer", "conditions": "30 min, pH 6.5", "endpoint": "kinetic solubility", "value": "20 to 40 µM"}
{"SMILES": "CN(C)C(=O)c1cc2cnc(Nc3ccc(-c4ccc5c(=O)cc(N6CCOCC6)oc5c4)cc3)nc2n1C1CCCC1", "system": "BALB/c mouse, plasma", "conditions": "oral, 20 mg/kg", "endpoint": "Vd/F", "value": "33.8 L/kg"}
